Assay results pooled from the literature.
Numbered parts are unrelated; each lists some results of a single study.

Sample 1
Target: RING finger protein unkempt homolog, zinc fingers 1-6, GST-SBP tag (UNK, Homo sapiens, UniProt Q9C0B0, residues 30-357)
Sequence of UniProt Q9C0B0 (30-357, looked up): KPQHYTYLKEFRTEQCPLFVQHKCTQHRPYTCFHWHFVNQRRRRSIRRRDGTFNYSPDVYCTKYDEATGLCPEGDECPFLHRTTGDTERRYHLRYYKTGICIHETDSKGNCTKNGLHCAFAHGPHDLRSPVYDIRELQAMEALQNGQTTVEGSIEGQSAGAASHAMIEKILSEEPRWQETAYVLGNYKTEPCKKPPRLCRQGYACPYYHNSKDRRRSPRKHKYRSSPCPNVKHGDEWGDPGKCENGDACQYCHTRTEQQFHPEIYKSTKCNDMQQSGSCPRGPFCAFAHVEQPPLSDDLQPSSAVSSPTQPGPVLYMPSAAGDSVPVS
Technique: RNA Bind-n-Seq
Form: RNA
Sample: in vitro
Concentration: not given
Setting: RNA with constant flanks, human and mouse sites, ends assumed
Baseline: input RNA pool
Reading: higher = stronger binding
Endpoint: bound/input enrichment
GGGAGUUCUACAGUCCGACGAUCUCACACUUAUAUUGUGGCAUAUAGUCAACAUGGAAGUAGACCAGCUCUGCUGAUUUGAAAUUUAGAUUUUUUAAAUUAUGUACUGGGGACAGGUUUUUGUCGCUUUACAUUGCUUCCUAGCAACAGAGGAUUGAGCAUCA: 7.55 ratio
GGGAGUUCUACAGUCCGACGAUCACAUCAUGUAUGUAUGUGCAAAUGUUGUCUUUUUGAGGGAAUUUAGUAUUUAAAUUGCUUCAUAGUCUAAGUUAUUAAAUUUUGUAUGAAAUAACUCUUGAAAACAUUCACUUUUCAGUACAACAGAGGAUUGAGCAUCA: 0.604 ratio
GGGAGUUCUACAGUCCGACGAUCAAAUAUUUUGAGAAUUCAGCUGAAACAGACAUUCCAAAAAUCACCAAAAAACUAUCUCAACUAGGAGAAUCAGAGCUUUUUGCAAGUUCUGGAUCAUUUUCAUUACAGAGCUCUAUACCACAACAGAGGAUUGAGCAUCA: 0.63 ratio
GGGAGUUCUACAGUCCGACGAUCCCCAAGGAGACUAAGGAGGACGGAAGAACAGGUGAGGCACAAGGACCCGUGUAAACUCAUCUUAGACCAUCCCAUUCUUGAGUGGCCAGCUCAGAGCUCAAGGCUGGAAGAAAAAGAGCCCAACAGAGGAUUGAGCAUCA: 0.277 ratio
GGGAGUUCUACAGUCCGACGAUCCUUCCGCCUGAGCCCCGGAAGGGUGAUGUGGCUGCGGCAUCGCCGGCCUCGCUAUGUCUGCCAUUUUCAAUUUUCAGAGUCUAUUGACUGUAAUCUUGCUGCUUAUAUGUACCUGUGCUUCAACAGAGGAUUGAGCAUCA: 0.182 ratio
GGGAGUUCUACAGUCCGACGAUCAAGAAUCGGAUGAAUUGAUGAAGAGUUGAGUUACCUGCAACCCAUUGAGAAGUGUCCUGUGCGUCUGUUUUGUGUCUGGUGCAGAAAAUGACAAUCUACCAACUGUCCCCUUAUUUGGAGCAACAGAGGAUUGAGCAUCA: 0.214 ratio
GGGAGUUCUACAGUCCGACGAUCCACUCCCUCCCUCUAACAGCAGGCUGUGUGGGUUUCAAUUCCCAUCCUCCCCACCCUGGCUAGGUGUCGUCCACCCUGUAUCCUAUCAUGUGUCUGUGUGUGGGGGGGUUCUGUACUAAUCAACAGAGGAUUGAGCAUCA: 0.218 ratio
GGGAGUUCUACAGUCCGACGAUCGGGAGCGCAGAGCGGCCUUUCCAGCAUGCAGCGGCUGCUCAGAGUAUAGAAAUAUCAAGAAAUAGGAGAGAAUUCAACCAUGGCCCCACGGAAGAGAGGCGGCCGGGGGAUUUCAUUUAUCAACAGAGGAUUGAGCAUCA: 4.01 ratio

Sample 2
Target: Histone acetyltransferase KAT6A, winged helix 2, GST fusion (KAT6A, Homo sapiens, UniProt Q92794, residues 85-181)
Technique: protein binding microarray
Form: double-stranded DNA, one strand shown
Sample: in vitro
Concentration: not given
Setting: 8-mer, flanks averaged, mean of 2 arrays, mostly near background
Baseline: not given
Reading: higher = stronger binding
Endpoint: E-score
Construct (chain): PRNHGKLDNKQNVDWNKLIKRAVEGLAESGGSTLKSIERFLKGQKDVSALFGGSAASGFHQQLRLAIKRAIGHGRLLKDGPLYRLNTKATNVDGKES
TAGGGGGA: -0.239
CTTATTGA: -0.0731
CGGCTACA: 0.0377
GAGGCCCA: 0.0603
AGATTGCA: 0.00534
CTCTCATC: -0.135
GCCGAGGC: 0.3
CAGTCACG: -0.146
CACTAAGG: -0.109
ACGATAGT: -0.125
CTCCTGGC: 0.0647
GAAACGGC: 0.0685
AACTAATG: 0.0727
GCAACCGC: 0.279
AGTGTAGA: -0.169
CCATTCGG: 0.195
CAGGGTCG: 0.0904
GGTCTGTA: -0.0572
AGGCGAGC: 0.0779
ACGTGCGA: -0.116

Sample 3
Target: Prothrombin, mature alpha-thrombin (F2, Homo sapiens, UniProt P00734)
Technique: aptamer microarray, sandwich
Form: DNA with 2'F-ANA
Sample: in vitro
Concentration: 200 nM
Setting: whole 15-mer aptamer, many near background
Together with: Cy3 exosite-II aptamer, 400 nM
Reading: higher = stronger binding
Endpoint: mean fluorescence intensity
Oligonucleotide: GGTTGGTGTGGTTGG
2'F-ANA at 1 5 6 8 9 11 15: 55.7 a.u.
2'F-ANA at 1 3 4 6 8 9: 222 a.u.
2'F-ANA at 4 7 10 11 12 13 14 15: 60.5 a.u.
2'F-ANA at 1 3 4 5 7 8 10 15: 50.4 a.u.
2'F-ANA at 4 5 6 7 9 10 11 13 15: 48.4 a.u.
2'F-ANA at 3 4 5 6 7 8 9 10 13: 51.8 a.u.
2'F-ANA at 2 5 6 9 11 12 15: 114 a.u.
2'F-ANA at 2 7 8 10 11 12 15: 173 a.u.
2'F-ANA at 4 6 8 9 11: 212 a.u.
2'F-ANA at 1 2 3 5 7 9 12: 119 a.u.
2'F-ANA at 5 6 8 10 12 13 14: 70.3 a.u.
2'F-ANA at 2 4 5 6 8 10 13 14 15: 46.8 a.u.
2'F-ANA at 1 4 5 6 8 9 11: 55.3 a.u.
2'F-ANA at 2 3 5 6 8 10 12 13 14 15: 55.5 a.u.
2'F-ANA at 2 3 4 6 7 8 9 10 11 12 15: 234 a.u.
2'F-ANA at 1 2 5 7 8 9 11 12 14 15: 48.5 a.u.
2'F-ANA at 9 10: 188 a.u.
2'F-ANA at 1 3 7 9 11 12 15: 394 a.u.
2'F-ANA at 2 3 4 6 7 9 11 12 13: 423 a.u.
2'F-ANA at 2 6 8 13 14: 128 a.u.
2'F-ANA at 3 4 7 9 11 12 14 15: 342 a.u.
2'F-ANA at 3 4 5 6 8 10 15: 50.7 a.u.

Sample 4
Target: RNA binding protein fox-1 homolog 2, RRM domain, GST-SBP tag (RBFOX2, Homo sapiens, UniProt O43251-10, residues 100-194)
Technique: RNA Bind-n-Seq
Form: RNA
Sample: in vitro
Concentration: 365 nM
Setting: natural RNA segment, single round, ends assumed
Baseline: no-protein control
Reading: higher = stronger binding
Endpoint: RBNS enrichment (R)
Residues (chain): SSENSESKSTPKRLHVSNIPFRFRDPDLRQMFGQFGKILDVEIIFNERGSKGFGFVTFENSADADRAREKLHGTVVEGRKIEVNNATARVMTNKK
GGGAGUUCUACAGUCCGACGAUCUGAGAGGCGAGGAGGUAGUGGGUGAGGCUACCUGACUCACUUCAAAUGCAUGUUUUGAGAUGUUUGGAGAUUCAGCAAUUCUGUCUUCAUUGCUCCAGGAUCUGGUAUACUGGAAUUCUCGGGUGCCAA: 27.7
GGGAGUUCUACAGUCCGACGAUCAUAAAAGCCAACAAGAGAAACCAUCUCUGACUACCCCUUCCCCCCCUCCCCUUGGAAGUUCCCCAUUGUCACUGAGAACCACCAAAUUUGACUUUCACAUUUGGUCUCAGUGGAAUUCUCGGGUGCCAA: 0.387
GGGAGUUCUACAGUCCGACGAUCGUGUGUUUUGUUAAUACAAGAGGCCGGGUUUGGGGCUUGUGUUUGUCAAUAAACUCUUUGGCGCUGGUUCCUUGGUUUUCUUGUGCUGUGAGGUUGGCAGUUAACUAACUUGGAAUUCUCGGGUGCCAA: 0.618
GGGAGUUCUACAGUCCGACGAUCCCGCGGGUCCUGUUUCCUUACUGGGGAUUUCAGGGCUGGGGGUUCAGGGAGCAUUUCCUUUUCCUGGGAGUUAUGACCGCGAAGUUGUCAUGUGCCGUGCCCUUUUCUGUUGGAAUUCUCGGGUGCCAA: 0.307
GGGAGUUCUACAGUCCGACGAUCUCUGUUUGUCUUUUCUACCUCUUUCUCUUGCAGUGAUAGACUGAGGGGGUAAAAUCAAGAGAAAAAACUCUCAGGAAUCAAGGAACAUAAUCCUGUGGAGGGUAAUCCAUUGGAAUUCUCGGGUGCCAA: 0.413
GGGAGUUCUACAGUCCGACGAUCAGACUGAGGCUCUCCCAUGCCUACCAGGGGGUGUUUUCCUUCCUAAACAGAACACUGGAUUCUUCCUGUUAACUUCACCGAGAGUAGCUACAAAGGUGGACUUAGAGCCAUGGAAUUCUCGGGUGCCAA: 0.325
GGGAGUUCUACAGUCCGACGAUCCGCUGCCAGGGUGAUCAUUCAUCAGUUUCGGCCACUAGAGACAGAAAACUACACUGCUAAGCCCUGGACUUUGCCCAACCCCUUUCUAGGACCGUUUUCUCCCUCUCUCUUGGAAUUCUCGGGUGCCAA: 0.248
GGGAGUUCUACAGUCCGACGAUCCUUGGGCUGCUACCGCCGCCACCACCGUCACCACCAUCUGUCCAGUGCUACUGUCUGUGCCCUCCUAGGCCACACAGCCUGAGGGAGCUUGCAUGGGUCUGCCCGUGUCGUGGAAUUCUCGGGUGCCAA: 0.328

Excerpt of the above (sample 3):
2'F-ANA at 2 4 5 6 8 10 13 14 15: 46.8 a.u.
2'F-ANA at 2 3 4 6 7 8 9 10 11 12 15: 234 a.u.
2'F-ANA at 2 5 6 9 11 12 15: 114 a.u.
2'F-ANA at 4 6 8 9 11: 212 a.u.
